Experimental data pooled from the literature.
Protocols differ between the studies behind these lines. Values joined by “and” are separate records of one study, mostly repeats; a detail may differ. ± marks the error that the study gave.
Cell line: HepG2

Compound	test	test system	setting	scale	quantity	result
CC1=C(O)C(=O)C=C2C1=CC=C1[C@@]2(C)CC[C@@]2(C)[C@@H]3C[C@](C)(C(=O)O)CC[C@]3(C)CC[C@]12C	cell viability, CCK-8		5 µM	higher = more viable cells	optical density	0.176 a.u. and 0.232 a.u. and 0.205 a.u. and 0.2 a.u. and 0.204 a.u. and 0.256 a.u.
CC(=O)c1ccc(C(O)C(C)C)cc1 (racemic)			250 µM, 48 h		cells killed	36%
CC(C)=CCC[C@](C)(O)[C@H]1CC[C@]2(C)[C@@H]1[C@H](O)C[C@@H]1[C@@]3(C)CC[C@H](O)C(C)(C)[C@@H]3[C@@H](O[C@@H]3O[C@H](CO)[C@@H](O)[C@H](O)[C@H]3O)C[C@]12C	cell viability, CCK-8		10 µM	higher = more viable cells	optical density	1.3 a.u. and 1.47 a.u. and 1.31 a.u. and 1.22 a.u. and 1.43 a.u. and 1.27 a.u.
COc1ccc(-c2cc(C(F)(F)F)c3c(N)c(C(=O)N4CCCC4)sc3n2)cc1	cell growth		concentration not given, 72 h		IC50	not toxic
NC(=O)c1nc(F)c[nH]c1=O	cell growth		120 h		IC50	> 400 µM
C#CC[N+]1(CC)CCc2c(sc(NC(=O)c3c(F)c(F)c(F)c(F)c3F)c2C(=O)OCC)C1.[Br-] (stereo not drawn)	cytotoxicity, resazurin		up to 200 µM, 18 h		IC50	not toxic
O=C(N[C@H](CO)[C@H](O)c1ccc([N+](=O)[O-])cc1)C(Cl)Cl	cell growth		120 h		IC50	> 100 µM
COc1c(C)c2c(c(O)c1C/C=C(\C)CCC(=O)O)C(=O)OC2	cell proliferation	liver cancer			IC50	0.513 µM
NC(=O)c1ncn([C@@H]2O[C@H](CO)[C@@H](O)[C@H]2O)n1	item: succinate dehydrogenase subunit A		120 h		IC50	45 ± 1.4 µM
COc1ccc(-n2nc(C(C)=O)s/c2=N\N=C(/C)c2ccc(NC(C)=O)cc2)cc1			0.078 µM		toxicity	9.04%
O=c1ccn([C@@H]2O[C@H](CO)[C@@H](O)[C@H]2O)c(=S)[nH]1	item: succinate dehydrogenase subunit A		120 h		IC50	> 50 µM
[131I-].[Na+]			16000 kBq/mL, 24 h		viability	78.5 ± 9.9%
